Values quoted from earlier work as cited in several papers.
Chain of UniProt P08913 (whole entry, looked up): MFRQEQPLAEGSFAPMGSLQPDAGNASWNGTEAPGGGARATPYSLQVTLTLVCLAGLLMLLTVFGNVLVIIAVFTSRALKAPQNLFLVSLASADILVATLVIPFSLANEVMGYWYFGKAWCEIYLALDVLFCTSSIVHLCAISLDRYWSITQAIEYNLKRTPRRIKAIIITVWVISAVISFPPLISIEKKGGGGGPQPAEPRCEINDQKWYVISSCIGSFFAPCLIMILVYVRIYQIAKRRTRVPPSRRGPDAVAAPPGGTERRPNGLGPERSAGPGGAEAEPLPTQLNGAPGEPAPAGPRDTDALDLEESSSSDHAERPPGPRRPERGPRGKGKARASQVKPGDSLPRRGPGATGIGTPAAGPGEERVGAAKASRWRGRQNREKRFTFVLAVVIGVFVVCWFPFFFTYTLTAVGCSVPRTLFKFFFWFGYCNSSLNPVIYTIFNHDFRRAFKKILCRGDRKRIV
Chain of UniProt P11229 (whole entry, looked up): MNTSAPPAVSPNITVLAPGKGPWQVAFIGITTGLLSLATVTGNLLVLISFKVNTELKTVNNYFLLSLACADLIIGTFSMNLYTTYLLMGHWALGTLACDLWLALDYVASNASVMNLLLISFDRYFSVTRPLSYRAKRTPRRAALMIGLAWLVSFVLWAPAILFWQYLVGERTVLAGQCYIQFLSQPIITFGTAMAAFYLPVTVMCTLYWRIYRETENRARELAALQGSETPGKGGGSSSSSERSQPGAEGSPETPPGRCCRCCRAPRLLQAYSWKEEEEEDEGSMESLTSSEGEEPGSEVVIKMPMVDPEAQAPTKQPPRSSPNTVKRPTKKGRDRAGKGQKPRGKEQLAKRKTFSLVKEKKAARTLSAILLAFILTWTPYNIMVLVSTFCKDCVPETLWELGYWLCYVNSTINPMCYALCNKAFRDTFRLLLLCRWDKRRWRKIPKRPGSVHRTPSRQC

CCOc1cc(CC(=O)N[C@@H](CC(C)C)c2ccccc2N2CCCCC2)ccc1C(=O)O — activity class (Toxoplasma gondii; parasite growth; concentration not given, published screen): inactive
CN1CCN(C(=O)C(C)(C)c2ccc(C(=O)Nc3cn4cc(-c5ccncc5)ccc4n3)cc2)CC1 — IC50 (CLK3 (human); enzyme activity): 110 nM
COC(=O)[C@@H]1[C@H]2C[C@H]3c4[nH]c5ccccc5c4CCN3C[C@@H]2CC[C@@H]1O — Hill coefficient (Alpha-2A adrenergic receptor (ADRA2A, Homo sapiens, UniProt P08913); binding): 0.9
CNC(=O)c1ccc(Nc2ncc(C(F)(F)F)c(NCc3nccnc3N(C)S(C)(=O)=O)n2)cc1 — Ki (ADORA2A; Cerep selectivity panel): 370 nM
CC[C@@H]1CN(C(=O)NCC(F)(F)F)C[C@@H]1c1cnc2cnc3[nH]ccc3n12 — ACR20 response rate (rheumatoid arthritis patients; 15 mg): 70.5%
CC(=O)Nc1c(C(C)=O)c(=O)n(C)c2nc(-c3ccc(Cl)cc3Cl)c(-c3ccc(Cl)cc3)cc12 — Ki (ADRA2C; MSD Pharma Taiwan panel screen): 1130 nM
CCS(=O)(=O)N1CC(CC#N)(n2cc(-c3ncnc4[nH]ccc34)cn2)C1 — ACR20 response difference (rheumatoid arthritis patients; 4 mg; baseline: placebo): 30.8 percentage points
C[N+]1(C)CCC(OC(=O)C(c2ccccc2)c2ccccc2)CC1 — IC50 (Muscarinic acetylcholine receptor M1 (CHRM1, Homo sapiens, UniProt P11229)): 4.5 nM
Cc1cc(Nc2nccc(C)n2)cc(-c2cnc([C@@]3(O)CC[C@H](C(=O)O)C(C)(C)C3)s2)c1 — IC50 (SRC; kinase panel): 100 nM

A few entries again:
CC(=O)Nc1c(C(C)=O)c(=O)n(C)c2nc(-c3ccc(Cl)cc3Cl)c(-c3ccc(Cl)cc3)cc12 — Ki (ADRA2C; MSD Pharma Taiwan panel screen): 1130 nM
